Measurements from different studies.
A part holds a random share of what one study measured. Positions count from the first letter of the parent shown.

Study 1
Target: PABPC1L2, full length, GST fusion (mouse, UniProt A0ABA7IW68)
Technique: RNAcompete
Molecule type: RNA
Sample: in vitro
Tested at: 20 nM
Setting: 7-mer, probes averaged, single round
Relative to: mean of 7-mers
Direction: higher = stronger binding
Quantity: 7-mer Z-score
Construct (chain): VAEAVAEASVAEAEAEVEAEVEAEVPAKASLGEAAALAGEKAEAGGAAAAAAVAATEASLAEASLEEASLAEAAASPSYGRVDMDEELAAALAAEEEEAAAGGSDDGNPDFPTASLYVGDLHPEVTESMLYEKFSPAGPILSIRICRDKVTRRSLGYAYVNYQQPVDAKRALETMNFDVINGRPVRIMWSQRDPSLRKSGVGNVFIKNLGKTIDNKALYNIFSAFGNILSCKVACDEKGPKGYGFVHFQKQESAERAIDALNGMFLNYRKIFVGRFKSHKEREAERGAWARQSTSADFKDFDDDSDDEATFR
CACAGCG: -0.0881
GGAGAGU: -0.19
GGAAGCG: 0.144
ACAUUUG: -0.237
CAGGAGU: 0.131
GCAAGCC: -0.22
ACCCUAA: -0.0192
UUGGACC: -0.0174
AUAAAUA: 4.22
AGCGAGG: 0.336
GCCAAUA: 0.0207
CCAUACC: -0.257
UCAAAGG: -0.0863
GCGGAAA: 1.08
UAGUAAG: -0.0772
UCAAAGA: 0.162

Study 2
Target: RING finger protein unkempt homolog, zinc fingers 1-6, SBP tag (UNK, Homo sapiens, UniProt Q9C0B0, residues 30-357)
Sequence of UniProt Q9C0B0 (30-357, looked up): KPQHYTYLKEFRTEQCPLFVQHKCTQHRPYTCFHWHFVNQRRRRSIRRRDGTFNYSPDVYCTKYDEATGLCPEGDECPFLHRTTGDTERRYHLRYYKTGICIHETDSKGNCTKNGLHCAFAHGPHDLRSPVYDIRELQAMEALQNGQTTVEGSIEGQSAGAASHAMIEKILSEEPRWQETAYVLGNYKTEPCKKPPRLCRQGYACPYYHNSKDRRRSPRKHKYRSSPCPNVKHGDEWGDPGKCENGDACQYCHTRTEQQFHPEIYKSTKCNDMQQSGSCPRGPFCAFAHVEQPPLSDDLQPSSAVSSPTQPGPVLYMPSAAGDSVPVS
Technique: RNA Bind-n-Seq
Molecule type: RNA
Sample: in vitro
Tested at: 100 nM
Setting: RNA with constant flanks, vertebrate orthologous sites, ends assumed
Relative to: input RNA pool
Direction: higher = stronger binding
Quantity: bound/input enrichment
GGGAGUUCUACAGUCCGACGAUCAUAUUCAGUCAUGGAGAAAAACAUAUUAAAAUAACUUCAUGGCACUGAUGUUAGUUCUAUUAGUUUUAUAAAAGUUAGGAUUCUUACUUAGGAACAACAGAAAAUGACUGUUAAGGAGAACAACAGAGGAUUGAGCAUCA: 1.96 ratio
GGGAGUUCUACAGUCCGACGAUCCACAUCUGGUGAUAUUUGGCCUGGCCUUUCAGCUUAUGAUAAUAGUCCCAGAUCACCUCAUAGUCCUUCACCGAUUGCUACACCACCUAGUCAGAGUUCAUCUUGCUCUGAUGCCCCCAUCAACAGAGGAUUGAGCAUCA: 0.817 ratio
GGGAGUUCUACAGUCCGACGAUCUGUCCUCGUUAAGCACUGCGUUCCAGACCGUGUCUGACUUAGUUAACCUAGGGGAUUUUAUAGUUUUCCUUUAAUGAAGUCCUGAUUAACACAGAGCAGUGGGGAGGACGGUCCCUCUCCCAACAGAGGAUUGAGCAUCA: 0.47 ratio
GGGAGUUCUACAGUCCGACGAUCACAAUCUUCUACUUAAACUGGUAUUUUCAAACAAUAGGAACCUAUUUUUUUUUGUUACAGUUUAGUAUCUCGUUUCUACAUGGAAGACUAAACUCAUGCUUAUAGCUAAAUGUGGUCUUUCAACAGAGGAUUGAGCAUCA: 0.451 ratio
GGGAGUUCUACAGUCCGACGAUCAGAGACAAUGGCCACUUAUCACCUCAGUGAGGUAAAGGCUCCUUGGUAUUUGGUUGGUACUAAAGCCAGUGAUUCCUCAUAAGUCUUUUCACAUUUCAUUUCUUUCAUACUCAGUCAUCUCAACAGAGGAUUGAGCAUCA: 0.609 ratio
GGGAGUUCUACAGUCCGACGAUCUAAAUACUGUGCAGGUGGCAUACCAGCAUAGGCAAAGCUUUCAAAGAGAAAAUAUCUUACAAAGCAUUUGUAAAGAUAUAUUUAAAGAAAAAAAGAAAUUGAAGAACUGAAACCCAAAGCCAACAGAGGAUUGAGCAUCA: 0.501 ratio
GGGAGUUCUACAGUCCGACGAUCGGGACGUUUUGAUGUAAAAAUUGAAGUUAAGAGCUGAUCACAAGCACAAAAUCUUUCCCACUAGCCAUUUAAUAAGUUAAAAAAGAUACAAAAACAAAAACCUACUAGUCUUGAACAAACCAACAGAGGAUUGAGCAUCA: 2.76 ratio
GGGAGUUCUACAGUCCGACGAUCGUUGUGACCCAUUUAACAUACAUAAAAAACUAGCCAAAAAAAAUCUGCAUGUGAUCGAUUUAGAUGAUGCCACUUUUCUGAGCGCAAAAUUUGGAAGACAACUUGUACCUGGAUGGAAAUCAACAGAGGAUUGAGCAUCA: 1.71 ratio
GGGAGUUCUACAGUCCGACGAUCCCCCUCUGAACCCCAUAUCUUCUGUUUCAUAGUGCAGAGUAUUCUCUUCAGUUAUGUUAUUAGUGGACUUGUUUUAAUUUUAGGGAAACUUUCAGUACAGAUACUGUGAGCUUACAUGGACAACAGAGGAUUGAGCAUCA: 1.11 ratio
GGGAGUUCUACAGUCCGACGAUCGCAAUGAAAAAGCAGCCCUUCUCCCAACCCCUUUUUCACUAGGAGAUGCAAACGGUACCCUAGAAGAGCAAUUAAACUCGAUAAAUUUAUCUUUUCAGGAUGAUCCAGACUCCAGUACCACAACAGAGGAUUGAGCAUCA: 0.48 ratio
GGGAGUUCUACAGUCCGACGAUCAUUCACUGUACUGCACACCCAUCCUAGUAUCAACUAGCCACAGUGAUGACUUGUCUGUGCUAGUAGAAAUAUUUGCCGUGACCUUUGAAGUCUGCUUUGUCUGAUCCCUGAAACCAAUCACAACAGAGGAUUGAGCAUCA: 0.45 ratio

Study 3
Target: CCNB1, cyclin fold, Cln2 fusion (human)
Technique: yeast growth competition, sequencing
Sample: yeast
Setting: weak parent motif
Relative to: not given
Direction: higher = stronger binding
Quantity: normalised enrichment score
Starting sequence: SCAPER docking peptide (human); SNARRSLNFGGST
SNARRSLNFGGKT [S12K]: 0.371
SNARRSTNFGGST [L7T]: 0.747
SNARRSLMFGGST [N8M]: 0.0683
GNARRSLNFGGST [S1G]: 0.322
SNARRSLLFGGST [N8L]: 0.0689
SNARRNLNFGGST [S6N]: 0.0237
SNARRSLNFGHST [G11H]: 0.377
SNARRSLNFGGSD [T13D]: 1.34
SNARRSLWFGGST [N8W]: 0.582
SNARRSLSFGGST [N8S]: 1.26
SFARRSLNFGGST [N2F]: 1.15
SNARRSLNFQGST [G10Q]: 0.0469
SNPRRSLNFGGST [A3P]: 0.715
SNARRTLNFGGST [S6T]: 0.185
SNARRSLNFGGPT [S12P]: 0.466
SNARRHLNFGGST [S6H]: 1.04
SNARRSLNFGGTT [S12T]: -0.108
SNARRSLNFGGSQ [T13Q]: 0.253
SHARRSLNFGGST [N2H]: 0.354
SNARRDLNFGGST [S6D]: 0.476
SNARRSLNFGGSN [T13N]: 1.07
SNARRSLNFHGST [G10H]: 0.864
SNARRALNFGGST [S6A]: 0.909
SNARRSMNFGGST [L7M]: 0.152
SNARRSLNFGIST [G11I]: 0.275

Study 4
Target: Histone acetyltransferase KAT6A, both winged helices, GST fusion (KAT6A, Homo sapiens, UniProt Q92794, residues 1-181)
Technique: protein binding microarray
Molecule type: double-stranded DNA, one strand shown
Sample: in vitro
Tested at: not given
Setting: 8-mer, flanks averaged, mean of 2 arrays, mostly near background
Relative to: not given
Direction: higher = stronger binding
Quantity: E-score
Construct (chain): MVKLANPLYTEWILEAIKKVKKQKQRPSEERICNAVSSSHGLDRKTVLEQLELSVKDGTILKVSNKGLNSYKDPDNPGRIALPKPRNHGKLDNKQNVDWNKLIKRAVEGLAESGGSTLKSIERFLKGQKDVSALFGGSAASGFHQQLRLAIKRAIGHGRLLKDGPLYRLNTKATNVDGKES
AAACGCAG: 0.134
AGTAATTG: -0.128
ACACTCTG: -0.219
CAATGTCA: -0.0253
CGAATTAC: 0.0402
CCAGTGGG: -0.142
GACGTTAC: 0.00634
GGGTGGTA: -0.149
ACCAGACG: -0.105
ACACTAGA: -0.122
AATACCCG: 0.175
ATTATTTC: -0.0226
AGATTATA: -0.0726
CGTGTAAA: 0.116
TGAAACAA: -0.108
ATTTGCGA: -0.0544
AGTGTGCC: -0.142
GGGAGGCA: 0.00802
AGGATTAG: -0.261
CCTCCGTA: 0.103
CCCACTGA: -0.194
